Results collected from several papers.
A part holds a random share of what one study measured. Substitutions count along the parent as printed.
Chain of UniProt Q9UBX1 (whole entry, looked up): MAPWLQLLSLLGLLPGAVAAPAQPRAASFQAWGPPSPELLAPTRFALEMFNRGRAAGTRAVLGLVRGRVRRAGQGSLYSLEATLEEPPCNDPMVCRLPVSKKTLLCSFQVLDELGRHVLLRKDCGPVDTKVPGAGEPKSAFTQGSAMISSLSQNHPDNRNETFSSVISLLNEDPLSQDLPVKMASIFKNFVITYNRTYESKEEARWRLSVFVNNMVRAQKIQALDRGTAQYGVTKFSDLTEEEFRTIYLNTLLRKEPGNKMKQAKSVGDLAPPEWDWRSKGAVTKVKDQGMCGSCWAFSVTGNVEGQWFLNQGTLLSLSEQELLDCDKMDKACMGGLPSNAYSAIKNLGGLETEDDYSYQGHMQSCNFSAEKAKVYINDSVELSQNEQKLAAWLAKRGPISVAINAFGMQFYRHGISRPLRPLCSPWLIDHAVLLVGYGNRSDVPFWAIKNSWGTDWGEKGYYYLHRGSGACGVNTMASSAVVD

Series 1
Target: HLA class I histocompatibility antigen, A alpha chain, allele A*25:01 (Homo sapiens, UniProt P04439)
Observed: peptide-MHC binding
Form: peptide
Concentration: concentration not given
Quantity: binding
MPIAAAIGT: inactive
AVEDFLAFF: inactive
KSFSAGMFH: inactive
RIYKRSLKL: inactive
GFPFFIMPK: inactive
VLIRRCHYL: inactive
LKEKSSLRY: inactive
SAEVVTLWY: inactive

Series 2
Target: CCND3, cyclin fold, Cln2 fusion (human)
Technique: yeast growth competition, sequencing
Medium: yeast
Setting: weak parent motif
Relative to: not given
Direction: higher = stronger binding
Quantity: normalised enrichment score
Parent: viral docking peptide; KKAKRRLFTISDS
KKAKRRLFTISDA [S13A]: 0.168
KKAKARAFTISDS [R5A L7A]: -0.0997
KKAKKRLLTISDS [R5K F8L]: 0.302
KKAKRRLATISDS [F8A]: 0.144
KKAKRRLFAISDS [T9A]: 0.161
KKAKKRLFTISDS [R5K]: 0.063
KKAKRALFTISDS [R6A]: 0.275
KAAKRRLFTISDS [K2A]: 0.156

Other studies, line by line
B1: cystatin C; sequence looked up; chain SSPGKPPRLVGGPMDASVEEEGVRRALDFAVGEYNKASNDMYHSRALQVVRARKQIVAGVNYFLDVELGRTTCTKTQPNLDNCPFHDQPHLKRKAFCSFQIYAVPWQGTMTLSKSTCQDA
CCCCC(=O)NC(c1ccc(OC)c(OC)c1)c1ccc2cccnc2c1O (stereo not drawn)  viability (HEK-293T-ACE2-TMPRSS2; cell count; concentration not given): 73%
B1 (cystatin C)  inhibition (Cathepsin F (Homo sapiens, UniProt Q9UBX1); enzyme activity, inhibitor; 10 µM): 89%

Repeated from above (series 2):
KKAKKRLFTISDS [R5K]: 0.063
